Published values gathered from unrelated publications.
Numbers after ± are the reported error. The star is where a group is joined.
OPRD1: Delta-type opioid receptor (OPRD1, Homo sapiens, UniProt P41143)
CNR1: Cannabinoid receptor 1 (CNR1, Homo sapiens, UniProt P21554)
rhlR: HTH-type quorum-sensing regulator RhlR (rhlR, Pseudomonas aeruginosa, UniProt P54292)
Ryanodine receptor 1: Ryanodine receptor 1 (Oncorhynchus mykiss, UniProt A0A8C7UX14)

Substance = CC(C)[C@@H](CN1CCN(c2cccc(O)c2)[C@@H](C)C1)NC(=O)c1ccc(Oc2cccc(F)c2)cc1; target = OPRD1; assay = antagonist; system = CHO; setting = added: DPDPE; endpoint = Ke; result = 173 ± 5 nM
Substance = NC(=O)N1CCC[C@H](NC(=O)c2nn(Cc3ccc(F)cc3)c3ccccc23)C1; target = CNR1; assay = calcium mobilization, agonist; system = CHO-K1 expressing Gαq16; scale = baseline: CP55,940 maximum; endpoint = Emax; result = 105 ± 1%
Substance = Ac-QDEVD-pNA (N-acetyl, C-pNA; pNA = O=[N+]([O-])c1ccc(N*)cc1); target = Caspase-8 (CASP8, Homo sapiens, UniProt Q14790); assay = substrate hydrolysis, substrate, colorimetric; setting = pH 7.5; endpoint = kcat; result = 0.183 ± 0.0167 s⁻¹
Substance = CCCCSS(C)(=O)=O; target = Gabrg2/GABRB2/Gabra1 (Rattus norvegicus, UniProt P18508+P47870+P62813, C260A/C282A/C319A/C341A); assay = covalent modifier, two-electrode voltage clamp; system = Xenopus laevis oocytes; setting = 0.5 mM, labelled without GABA, added: GABA EC10; scale = baseline: before labelling; endpoint = GABA current; result = no effect
Substance = CC(C)(NC(=O)c1nn(CCCCCF)c2ccccc12)c1cccc(C(N)=O)c1; target = CNR1; assay = calcium mobilization, agonist; system = CHO-K1 expressing Gαq16; scale = baseline: CP55,940 maximum; endpoint = Emax; result = 33 ± 7%
Substance = O=C(Cc1ccccc1)NC1CCOC1=O (stereo not drawn); target = rhlR; assay = reporter gene, agonist; system = Escherichia coli reporter strain; setting = 100 µM; scale = baseline: BHL 900 µM; endpoint = activation; result = 84%
Substance = O=C(O)c1ccc(-c2cccc(/C=N/NC(=O)c3cc(O)c(O)c(O)c3)c2)cc1; target = Gag-Pol polyprotein, reverse transcriptase A502G/D256G (gag-pol, Human immunodeficiency virus type 1 group M subtype B, UniProt P04585, A1089G/D843G); assay = RNase H activity, inhibitor; system = HIV-1, A502G and p51 D256G mutant; scale = baseline: wild type RT; endpoint = potency loss; result = 20 fold
Substance = KQTARKSTGGWW (octanoyl-Lys9); target = HDAC8 (Homo sapiens, UniProt Q9BY41); assay = substrate, HPLC; system = peptide; setting = 1 µM, 1 h, pH 8, 37 °C; endpoint = kcat/Km; result = 139 ± 13 M⁻¹ s⁻¹
Substance = berbamine; target = Heat shock protein HSP 90-alpha, C-terminal domain (HSP90AA1, Homo sapiens, UniProt P07900); assay = binding, zonal affinity chromatography; setting = pH 7.4, 25 °C; endpoint = retention factor; result = 15.3
Substance = COc1ccccc1Nc1ccc2c(c1)C(c1ccccc1F)=NC(C)C(=O)N2 (stereo not drawn); target = ADRA2C (Homo sapiens, UniProt P18825); assay = ligand displacement, radioligand; setting = 10 µM; endpoint = inhibition; result = 62%
Substance = C=C(CC[C@@H](C)[C@H]1CC[C@H]2C3=C(C(=O)C[C@]12C)[C@@]1(C)CC[C@@H](O)[C@](C)(O)[C@@H]1C[C@@H]3O)C(C)C(=O)O (stereo partly drawn); target = Peroxisome proliferator-activated receptor alpha (Rattus norvegicus, UniProt P37230); assay = reporter gene, agonist; system = CHO-K1; setting = 200 µM; endpoint = induction; result = 5.7
Substance = anthraquinone-neomycin; target = poly(dA)•2poly(dT) triplex DNA; assay = isothermal titration calorimetry; setting = concentration not given, pH 5.5, 15 °C, KCl 150 mM; endpoint = binding enthalpy; result = -6.1 ± 0.2 kcal/mol
Substance = WLRRYLENGK; target = ERAP2 (Homo sapiens, UniProt Q6P179, K392N); assay = substrate, RP-HPLC; system = peptide; setting = pH 7.0, 37 °C, added: 20 µM precursor; endpoint = trimming rate; result = 330 ± 34 pmol/nmol/s
Substance = COC1=C(OC)C(=O)C(CC=C(C)C)=C(C)C1=O; target = Type II NADH dehydrogenase (Plasmodium falciparum, UniProt Q8I302); assay = enzyme activity, substrate; setting = added: co-substrate 500 µM; endpoint = kcat; result = 0.015 ± 0.00167 s⁻¹
Substance = O[C@@H]1CCCC[C@H]1N1CCC(c2ccccc2)CC1 (racemic); target = SLC18A3 (Homo sapiens, UniProt Q16572, A334F); assay = [3H]compound saturation binding; scale = baseline: Kd A334F mutant over wild type; endpoint = affinity ratio; result = 4 fold
Substance = c1ccc([C@H]2CO2)cc1; target = Karenia brevis epoxide hydrolase; assay = substrate; setting = pH 7.0; endpoint = Km; result = 6.43 mM
Substance = C=C1[C@@H](C)[C@H]2[C@H](Cc3ccccc3)NC(=O)[C@]23[C@H](OC(C)=O)/C=C/[C@@](C)(O)C(=O)[C@@H](C)C/C=C/[C@H]3[C@@H]1O; target = integrin alphaM beta2 (human); assay = ligand binding, inhibitor, flow cytometry; system = human neutrophils; setting = concentration not given, 1 h, 37 °C, integrin clustering inhibitor, added: Alexa 488-labelled plasminogen; scale = baseline: no inhibitor, lower means less binding; endpoint = bound plasminogen fluorescence; result = 291 ± 40 MFI
Substance = Clc1ccc(-c2cc(Cl)c(Cl)cc2Cl)c(Cl)c1; target = Ryanodine receptor 1; assay = [3H]ryanodine binding; system = rainbow trout, skeletal muscle microsomes; setting = up to 20 µM; scale = baseline: DMSO; endpoint = Emax; result = 136 ± 5.66%
Substance = CALL; target = Protein farnesyltransferase (Homo sapiens, UniProt P49354+P49356); assay = enzyme activity, substrate, fluorimetric; system = peptide; setting = 3 µM, 30 min, added: 9 µM farnesyl diphosphate; scale = baseline: dansyl-GCVLS (set to 1.0); endpoint = relative fluorescence increase; result = < 0.05
Substance = Clc1ccc(Cl)c(-c2c(Cl)ccc(Cl)c2Cl)c1Cl; target = Ryanodine receptor 1; assay = [3H]ryanodine binding; system = rainbow trout, skeletal muscle microsomes; setting = up to 20 µM; scale = baseline: DMSO; endpoint = Emax; result = 269 ± 7.03%
Substance = O=c1cc(-c2ccccc2)oc2cc(O)ccc12; target = Cytochrome P450 1A1 (CYP1A1, Homo sapiens, UniProt P04798); assay = EROD activity, mechanism-based inhibitor; endpoint = kinact; result = 0.00192 s⁻¹
Substance = O=C1Nc2ccccc2/C1=C1/Nc2ccccc2/C1=N\O; target = CRK2 (Plasmodium falciparum, UniProt P61075); assay = KINOMEscan competition binding; setting = 12 µM; scale = baseline: DMSO control; endpoint = remaining binding; result = 50 to 95%
Substance = CC[C@H](C)[C@H](NC(=O)[C@H](C)NC(=O)[C@H](CO)NC(=O)[C@@H](NC(=O)[C@H](CCC(=O)O)NC(=O)[C@H](CCC(=O)O)NC(=O)[C@H](CCC(N)=O)NC(=O)[C@H](CCCCN)NC(=O)[C@H](CCCNC(=N)N)NC(=O)[C@@H](N)CCCCN)C(C)C)C(=O)N[C@H](C(=O)N[C@H](C(=O)N[C@@H](CCC(N)=O)C(=O)N[C@@H](CCCNC(=N)N)C(=O)N[C@@H](C)C(=O)N[C@@H](Cc1ccc(O)cc1)C(=O)N[C@@H](CCCNC(=N)N)C(=O)N[C@@H](CCCNC(=N)N)C(=O)N[C@@H](Cc1ccc(O)cc1)C(=O)N[C@@H](CC(C)C)C(=O)N[C@@H](CC(C)C)C(=O)N[C@@H](CCCCN)C(=O)N[C@@H](CCC(N)=O)C(=O)N[C@@H](CCCCN)C(=O)N[C@H](C(=O)N[C@@H](CCCCN)C(=O)N[C@@H](CCCCN)C(=O)O)C(C)C)[C@@H](C)CC)C(C)C; target = Calmodulin, C-terminal domain (CAM, Paramecium tetraurelia, UniProt P07463); setting = 3 to 1 µM, pH 7.4, 22 °C, apo CaM residues 76-148; scale = baseline: peptide alone; endpoint = fluorescence emission increase; result = 15%
Substance = CCCCCn1nc(C(=O)NC(C)(C)c2cccc(C(N)=O)c2)c2ccccc21; target = CNR1; assay = calcium mobilization, agonist; system = CHO-K1 expressing Gαq16; scale = baseline: CP55,940 maximum; endpoint = Emax; result = 30 ± 6%
Substance = Clc1cc(Cl)c(-c2c(Cl)cc(Cl)c(Cl)c2Cl)cc1Cl; target = Ryanodine receptor 1; assay = [3H]ryanodine binding, activator; system = trout muscle microsomes; setting = concentration not given; scale = baseline: DMSO; endpoint = Emax; result = 143%
Substance = O=[N+]([O-])c1ccc(O[C@H]2O[C@H](CO)[C@H](O)[C@H](O)[C@H]2O)cc1; target = lacY (Escherichia coli, UniProt P02920, H35C/N245C); assay = cytoplasmic cavity closing; system = DDM; setting = Cu2+ cross-linked; endpoint = reverse rate constant; result = 254 ± 67 s⁻¹
Substance = O=S(=O)(O)Oc1ccc(-c2ccc(Cl)cc2)c(Cl)c1; target = sulfatase, human liver microsomes; assay = substrate; setting = pH 7.4, 37 °C; endpoint = Vmax; result = 10.7 ± 0.9 nmol/min/mg
Substance = C[C@H]1CCCC(=O)CCC/C=C/c2cc(O)cc(O)c2C(=O)O1; target = zhd101 (Clonostachys rosea, UniProt Q8NKB0, D57K); assay = substrate, HPLC; setting = 10 min, pH 5.5, 37 °C, 1% acetonitrile; endpoint = Km; result = 11.2 ± 0.98 mM
Substance = O=C(Cc1cccc(Cl)c1)NC1CCOC1=O (stereo not drawn); target = rhlR; assay = reporter gene, agonist; system = Escherichia coli reporter strain; setting = 100 µM; scale = baseline: BHL 900 µM; endpoint = activation; result = 82%
Substance = CC[C@H](C)[C@H](NC(=O)[C@H](CCCNC(=N)N)NC(=O)[C@H](CCCNC(=N)N)NC(=O)[C@H](CC(C)C)NC(=O)[C@H](CCC(N)=O)NC(=O)[C@H](CCC(=O)O)NC(=O)[C@H](C)NC(=O)[C@@H](NC(=O)[C@H](CNC(=O)c1cc(S(=O)(=O)F)ccc1C)NC(C)=O)[C@@H](C)CC)C(=O)NCC(=O)N[C@@H](CC(=O)O)C(=O)N[C@@H](CCCNC(=N)N)C(=O)N[C@@H](Cc1ccccc1)C(N)=O; target = MCL1 (Homo sapiens, UniProt Q07820); assay = cell-free assay, inhibitor; endpoint = kinact; result = 0.0193 s⁻¹
Substance = COc1cccc(Oc2ccc(C(=O)N[C@H](CN3CCN(c4cccc(O)c4)[C@@H](C)C3)C(C)C)cc2)c1; target = OPRD1; assay = antagonist; system = CHO; setting = added: DPDPE; endpoint = Ke; result = 1500 ± 400 nM
Substance = Clc1ccc(Cl)c(-c2cc(Cl)ccc2Cl)c1; target = Ryanodine receptor 1; assay = [3H]ryanodine binding; system = rainbow trout, skeletal muscle microsomes; endpoint = EC20; result = 1400 nM
Substance = CC(C)[C@H](NC(=O)[C@H](CCC(=O)O)NC(=O)[C@H](CC(=O)O)NC(=O)[C@H](C)NC(=O)[C@H](CC(=O)O)NC(=O)[C@H](CC(N)=O)NC(=O)[C@H](CC(=O)O)NC(=O)[C@H](CO)NC(=O)[C@H](CO)NC(=O)[C@@H](NC(=O)[C@H](CCC(N)=O)NC(=O)[C@H](Cc1ccccc1)NC(=O)[C@H](CC(=O)O)NC(=O)[C@H](CCC(=O)O)NC(=O)[C@H](C)NC(=O)[C@@H](NC(=O)[C@H](CO)NC(=O)[C@H](CCC(=O)O)NC(=O)[C@@H](N)CC(=O)O)C(C)C)C(C)C)C(=O)N[C@@H](C)C(=O)N[C@@H](CCC(=O)O)C(=O)N[C@@H](CCC(=O)O)C(=O)N[C@@H](Cc1ccccc1)C(=O)N[C@@H](CC(=O)O)C(=O)N[C@@H](CO)C(=O)O; target = HTB1/HTA1, H2B residues 30-130 (Saccharomyces cerevisiae, UniProt P02293+P04911); assay = binding, ITC; scale = baseline: wild-type MBD peptide; endpoint = affinity decrease; result = 39 fold

Some of these lines once more:
Substance = CC[C@H](C)[C@H](NC(=O)[C@H](CCCNC(=N)N)NC(=O)[C@H](CCCNC(=N)N)NC(=O)[C@H](CC(C)C)NC(=O)[C@H](CCC(N)=O)NC(=O)[C@H](CCC(=O)O)NC(=O)[C@H](C)NC(=O)[C@@H](NC(=O)[C@H](CNC(=O)c1cc(S(=O)(=O)F)ccc1C)NC(C)=O)[C@@H](C)CC)C(=O)NCC(=O)N[C@@H](CC(=O)O)C(=O)N[C@@H](CCCNC(=N)N)C(=O)N[C@@H](Cc1ccccc1)C(N)=O; target = MCL1 (Homo sapiens, UniProt Q07820); assay = cell-free assay, inhibitor; endpoint = kinact; result = 0.0193 s⁻¹
Substance = COc1cccc(Oc2ccc(C(=O)N[C@H](CN3CCN(c4cccc(O)c4)[C@@H](C)C3)C(C)C)cc2)c1; target = OPRD1; assay = antagonist; system = CHO; setting = added: DPDPE; endpoint = Ke; result = 1500 ± 400 nM
